Results of several laboratories.
Target: Mu-type opioid receptor (Oprm1, Rattus norvegicus, UniProt P33535)
Chain of UniProt P33535 (whole entry, looked up): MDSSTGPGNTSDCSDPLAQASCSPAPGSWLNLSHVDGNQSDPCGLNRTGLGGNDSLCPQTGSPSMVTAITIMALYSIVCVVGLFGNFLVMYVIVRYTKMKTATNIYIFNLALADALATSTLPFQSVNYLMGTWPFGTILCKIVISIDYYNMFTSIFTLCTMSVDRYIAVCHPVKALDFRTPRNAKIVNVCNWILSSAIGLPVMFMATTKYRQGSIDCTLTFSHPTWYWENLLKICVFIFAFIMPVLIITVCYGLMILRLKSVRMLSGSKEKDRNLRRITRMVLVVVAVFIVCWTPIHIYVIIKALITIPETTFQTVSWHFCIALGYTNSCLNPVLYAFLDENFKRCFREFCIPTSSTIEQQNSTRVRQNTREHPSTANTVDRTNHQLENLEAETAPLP

| Compound | read-out | method | pH | setting | Ki [nM] |
| --- | --- | --- | --- | --- | --- |
| Cc1cc(O)cc(C)c1CC(N)C(=O)NC1CCNc2c(C)cc(Cc3ccccc3)cc21 (centres unmarked) | ligand displacement | radioligand |  | cell membranes | 0.24 |
| CC(C)C[C@H](NC(=O)[C@H](Cc1ccc2ccccc2c1)NC(=O)CNC(=O)[C@H](NC(=O)[C@@H](N)Cc1ccc(O)cc1)[C@H](C)O)C(=O)N[C@@H](CO)C(N)=O | ligand displacement | radioligand | pH 7.4 | cell membranes | 2.7 |
| CC(C)C[C@H](NC(=O)[C@H](CCCNC(=N)N)NC(=O)[C@H](Cc1ccccc1)NC(=O)[C@H](Cc1ccccc1)NC(=O)[C@H](Cc1ccccc1)N(C)C(=O)CN)C(=O)N[C@@H](CCCNC(=N)N)C(=O)N[C@@H](CCCNC(=N)N)C(=O)N[C@H](C)C(=O)N[C@@H](CCCNC(=N)N)C(=O)N1CCC[C@H]1C(=O)N[C@@H](CCCCN)C(N)=O | ligand displacement | radioligand |  |  | 3070 |
| Cc1cc(O)cc(C)c1C[C@H](N)C(=O)N1Cc2ccccc2C[C@H]1CN[C@@H](Cc1ccccc1)C(=O)N[C@@H](Cc1ccccc1)C(N)=O | ligand displacement | radioligand |  | cell membranes | 0.4 |
| Cc1cc(O)cc(C)c1CC(N)C(=O)NC1CCNc2c(F)cc(Cc3ccccc3)cc21 (centres unmarked) | ligand displacement | radioligand |  | cell membranes | 0.11 |
| Cc1cc(O)cc(C)c1CC(N)C(=O)NC1CCNc2ccc(Cc3ccoc3)cc21 (centres unmarked) | ligand displacement | radioligand |  | cell membranes | 0.8 |
| CCCc1cc(Cc2ccccc2)cc2c1NCCC2NC(=O)C(N)Cc1c(C)cc(O)cc1C (centres unmarked) | ligand displacement | radioligand |  | cell membranes | 0.64 |
| CC(C)C[C@H](NC(=O)[C@H](CCCNC(=N)N)NC(=O)[C@H](Cc1c[nH]c2ccccc12)NC(=O)[C@H](Cc1ccccc1)NC(=O)[C@H](Cc1ccccc1)N(C)C(=O)CN)C(=O)N[C@@H](CCCNC(=N)N)C(=O)N[C@@H](CCCNC(=N)N)C(=O)N[C@H](C)C(=O)N[C@@H](CCCNC(=N)N)C(=O)N1CCC[C@H]1C(=O)N[C@@H](CCCCN)C(N)=O | ligand displacement | radioligand |  |  | 502 |
| CCCC[C@@H]1NC(=O)[C@H](Cc2ccccc2)NC(=O)CNC(=O)[C@H](NC(=O)[C@@H](N)Cc2ccc(O)cc2)C(C)(C)SSC(C)(C)[C@@H](C(=O)N[C@@H](Cc2c[nH]c3ccccc23)C(=O)NCc2cc(C(F)(F)F)cc(C(F)(F)F)c2)NC(=O)[C@@H]2CCCN2C1=O | binding |  |  |  | 2000 |
| Cc1cc(O)cc(C)c1CC(N)C(=O)NC1CCNc2ccc(CN3CCC4CCCCC4C3)cc21 (centres unmarked) | ligand displacement | radioligand |  | cell membranes | 0.15 |
| CC(=O)N(C)[C@@H](Cc1ccccc1)C(=O)N[C@@H](Cc1ccccc1)C(=O)N[C@@H](Cc1c[nH]c2ccccc12)C(=O)N[C@@H](CCCNC(=N)N)C(=O)N[C@@H](CC(C)C)C(=O)N[C@@H](CCCNC(=N)N)C(=O)N[C@@H](CCCNC(=N)N)C(=O)N[C@H](C)C(=O)N[C@@H](CCCNC(=N)N)C(=O)N1CCC[C@H]1C(=O)N[C@@H](CCCCN)C(N)=O | ligand displacement | radioligand |  |  | 2990 |
| CCNC(=O)c1cc(Cc2ccccc2)cc2c1NCCC2NC(=O)C(N)Cc1c(C)cc(O)cc1C (centres unmarked) | ligand displacement | radioligand |  | cell membranes | 0.2 |
| CC(=O)NCC(=O)N(C)[C@@H](Cc1ccccc1)C(=O)N[C@@H](Cc1ccccc1)C(=O)N[C@@H](Cc1ccccc1)C(=O)N[C@@H](CCCNC(=N)N)C(=O)N[C@@H](CC(C)C)C(=O)N[C@@H](CCCNC(=N)N)C(=O)N[C@@H](CCCNC(=N)N)C(=O)N[C@H](C)C(=O)N[C@@H](CCCNC(=N)N)C(=O)N1CCC[C@H]1C(=O)N[C@@H](CCCCN)C(N)=O | ligand displacement | radioligand |  |  | > 10000 |
| N=C(N)NCCC[C@@H]1NC(=O)[C@H](CCCNC(=N)N)NC(=O)[C@H](NC(=O)[C@H](Cc2ccccc2)NC(=O)CNC(=O)CNC(=O)[C@H](Cc2ccccc2)NCc2ccccc2)CC(=O)NC[C@@H](C(=O)N[C@@H](CCCNC(=N)N)C(=O)N2CCC[C@H]2C(=O)N[C@@H](CCCCN)C(N)=O)NC1=O | ligand displacement | radioligand |  | cell membranes | 11300 |
| CC(C)C[C@H](NC(=O)[C@H](CCCNC(=N)N)NC(=O)[C@H](Cc1c[nH]c2ccccc12)NC(=O)[C@H](Cc1ccccc1)NC(=O)[C@H](Cc1ccccc1)N(C)C(=O)COc1ccccc1)C(=O)N[C@@H](CCCNC(=N)N)C(=O)N[C@@H](CCCNC(=N)N)C(=O)N[C@H](C)C(=O)N[C@@H](CCCNC(=N)N)C(=O)N1CCC[C@H]1C(=O)N[C@@H](CCCCN)C(N)=O | ligand displacement | radioligand |  |  | 1250 |
| C[C@@H](NC(=O)[C@@H](N)Cc1ccc(O)cc1)C(=O)NCC(=O)N[C@@H](Cc1ccc(F)cc1)C(=O)N1CCN(C(=O)[C@H](Cc2ccc(F)cc2)NC(=O)CNC(=O)[C@@H](C)NC(=O)[C@@H](N)Cc2ccc(O)cc2)CC1 | ligand displacement | radioligand |  | cell membranes | 0.11 |

| Compound | read-out | method | pH | setting | Ki [nM] |
| --- | --- | --- | --- | --- | --- |
| CCC(=O)N(CC1CCCCN1C(=O)[C@H](Cc1ccccc1)NC(=O)CNC(=O)[C@@H](C)NC(=O)[C@@H](N)Cc1ccc(O)cc1)c1ccccc1 (some centres unmarked) | cell-free assay |  |  |  | 2 |
| Cc1cc(O)cc(C)c1CC(N)C(=O)NC1CCNc2c(C(=O)NCc3ccccc3)cc(Cc3ccccc3)cc21 (centres unmarked) | ligand displacement | radioligand |  | cell membranes | 0.17 |
| CCC(=O)N(CC1CCCCN1C(=O)[C@H](Cc1ccccc1)NC(=O)CNC(=O)[C@@H](C)NC(=O)[C@@H](N)Cc1c(C)cc(O)cc1C)c1ccccc1 (some centres unmarked) | cell-free assay |  |  |  | 0.8 |
| Cc1cc(O)cc(C)c1CC(N)C(=O)NC1CCNc2c(CN3CCOCC3)cc(Cc3ccccc3)cc21 (centres unmarked) | ligand displacement | radioligand |  | cell membranes | 0.15 |
| Cc1cc(O)cc(C)c1CC(N)C(=O)NC1CCNc2ccc(Cc3cccnc3)cc21 (centres unmarked) | ligand displacement | radioligand |  | cell membranes | 0.66 |
| NCCCC[C@H]1NC(=O)[C@H](Cc2ccc(O)cc2)NC(=O)CNC(=O)[C@H](Cc2ccc(O)cc2)NC(=O)[C@H](CNC(=O)c2ccccc2N)NC1=O | ligand displacement | radioligand |  | cell membranes | 39 |
| Cc1cc(O)cc(C)c1CC(N)C(=O)NC1CCNc2ccc(Cn3cncn3)cc21 (centres unmarked) | ligand displacement | radioligand |  | cell membranes | 3.1 |
| CC(=O)N(C)[C@@H](Cc1ccccc1)C(=O)N[C@@H](Cc1ccccc1)C(=O)N[C@@H](CC1CCCCC1)C(=O)N[C@@H](CCCNC(=N)N)C(=O)N[C@@H](CC(C)C)C(=O)N[C@@H](CCCNC(=N)N)C(=O)N[C@@H](CCCNC(=N)N)C(=O)N[C@H](C)C(=O)N[C@@H](CCCNC(=N)N)C(=O)N1CCC[C@H]1C(=O)N[C@@H](CCCCN)C(N)=O | ligand displacement | radioligand |  |  | 5930 |
| CC(C)C[C@H](NC(=O)[C@H](Cc1ccc2ccccc2c1)NC(=O)CNC(=O)[C@H](NC(=O)[C@@H](N)Cc1ccc(O)cc1)[C@H](C)O)C(=O)N[C@@H](CO[C@@H]1O[C@H](CO)[C@@H](O)[C@H](O)[C@H]1O)C(N)=O | ligand displacement | radioligand | pH 7.4 | cell membranes | 4.9 |
| Cc1cc(O)cc(C)c1CC(N)C(=O)NC1CCNc2c1cc(Cc1ccccc1)cc2C(C)(C)C (centres unmarked) | ligand displacement | radioligand |  | cell membranes | 0.47 |
| CC(=O)N1CCC(NC(=O)C(N)Cc2c(C)cc(O)cc2C)c2cc(CN3CCC4CCCCC4C3)ccc21 (centres unmarked) | ligand displacement | radioligand |  | cell membranes | 0.8 |
| COC(=O)N(C)[C@@H](Cc1ccccc1)C(=O)N[C@@H](Cc1ccccc1)C(=O)N[C@@H](Cc1ccc2ccccc2c1)C(=O)N[C@@H](CCCNC(=N)N)C(=O)N[C@@H](CC(C)C)C(=O)N[C@@H](CCCNC(=N)N)C(=O)N[C@@H](CCCNC(=N)N)C(=O)N[C@H](C)C(=O)N[C@@H](CCCNC(=N)N)C(=O)N1CCC[C@H]1C(=O)N[C@@H](CCCCN)C(N)=O | ligand displacement | radioligand |  |  | 53.8 |
| Cc1cc(O)cc(C)c1CC(N)C(=O)NC1CCNc2c(CN3CCCCC3)cc(Cc3ccccc3)cc21 (centres unmarked) | ligand displacement | radioligand |  | cell membranes | 0.07 |
| CC(C)C[C@H](NC(=O)[C@H](Cc1cccc2ccccc12)NC(=O)CNC(=O)[C@H](NC(=O)[C@@H](N)Cc1ccc(O)cc1)[C@H](C)O)C(=O)N[C@@H](CO)C(N)=O | ligand displacement | radioligand | pH 7.4 | cell membranes | 0.8 |
| COC(=O)N(C)[C@@H](Cc1ccccc1)C(=O)N[C@@H](Cc1ccccc1)C(=O)N[C@@H](Cc1ccccc1)C(=O)N[C@@H](CCCNC(=N)N)C(=O)N[C@@H](CC(C)C)C(=O)N[C@@H](CCCNC(=N)N)C(=O)N[C@@H](CCCNC(=N)N)C(=O)N[C@H](C)C(=O)N[C@@H](CCCNC(=N)N)C(=O)N1CCC[C@H]1C(=O)N[C@@H](CCCCN)C(N)=O | ligand displacement | radioligand |  |  | 1750 |
| Cc1cc(O)cc(C)c1CC(N)C(=O)NC1CCNc2ccc(Cc3ccc4ncccc4c3)cc21 (centres unmarked) | ligand displacement | radioligand |  | cell membranes | 2.1 |

Excerpt of the above:
| Compound | read-out | method | pH | setting | Ki [nM] |
| --- | --- | --- | --- | --- | --- |
| CC(=O)NCC(=O)N(C)[C@@H](Cc1ccccc1)C(=O)N[C@@H](Cc1ccccc1)C(=O)N[C@@H](Cc1ccccc1)C(=O)N[C@@H](CCCNC(=N)N)C(=O)N[C@@H](CC(C)C)C(=O)N[C@@H](CCCNC(=N)N)C(=O)N[C@@H](CCCNC(=N)N)C(=O)N[C@H](C)C(=O)N[C@@H](CCCNC(=N)N)C(=O)N1CCC[C@H]1C(=O)N[C@@H](CCCCN)C(N)=O | ligand displacement | radioligand |  |  | > 10000 |
| N=C(N)NCCC[C@@H]1NC(=O)[C@H](CCCNC(=N)N)NC(=O)[C@H](NC(=O)[C@H](Cc2ccccc2)NC(=O)CNC(=O)CNC(=O)[C@H](Cc2ccccc2)NCc2ccccc2)CC(=O)NC[C@@H](C(=O)N[C@@H](CCCNC(=N)N)C(=O)N2CCC[C@H]2C(=O)N[C@@H](CCCCN)C(N)=O)NC1=O | ligand displacement | radioligand |  | cell membranes | 11300 |
